# Measured values pooled from the literature.
# Numbered parts are unrelated; each lists some results of a single study. Positions count from the first letter of the parent shown.

# Block 1 — method: protein binding microarray; form: double-stranded DNA, one strand shown; matrix: in vitro; tested at: not given; baseline: not given; direction: higher = stronger binding
# Target: Histone acetyltransferase KAT6A, winged helix 1, GST fusion (KAT6A, Homo sapiens, UniProt Q92794, residues 1-85)
# Setting: 8-mer, flanks averaged, mean of 2 arrays, mostly near background
# Target sequence (chain): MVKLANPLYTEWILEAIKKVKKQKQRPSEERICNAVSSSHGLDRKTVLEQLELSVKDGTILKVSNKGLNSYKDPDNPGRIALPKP
Strand,E-score
ATTGTCTC,-0.0914
AACGTTGA,-0.0539
GCGTATAA,0.174
CCCAGAGC,-0.0972
CGCTGTGA,0.0555
GTAAGAGA,0.0458
AATAACCC,0.0478
CCATGGCG,0.205
CTTAAGAC,0.105
AAAGCCGC,0.363
ACATGCCT,-0.0167
CGTTTTTC,0.0244
ACTACAGA,-0.106
CCAGGGGA,-0.0437
AGCCGGTC,0.16
CTATGTTA,0.106
ATTGGACC,-0.0303
ATTCTAAA,-0.165
CAATGTAG,-0.26
ACTTCAGC,-0.162
AATCTCGT,-0.149
GCCCCTAA,-0.0284

# Block 2 — method: aptamer microarray, sandwich; form: DNA with 2'F-ANA; matrix: in vitro; tested at: 200 nM; together with: Cy3 exosite-II aptamer, 400 nM; direction: higher = stronger binding; strand: GGTTGGTGTGGTTGG
# Target: Prothrombin, mature alpha-thrombin (F2, Homo sapiens, UniProt P00734)
# Setting: whole 15-mer aptamer, many near background
Modification,mean fluorescence intensity [a.u.]
2'F-ANA at 1 2 4 6 7 8 10 12 13 15,68
2'F-ANA at 1 12 13 14 15,72.7
2'F-ANA at 1 2 5 6 10 11 12 13 15,47.1
2'F-ANA at 1 3 5 6 8 11 13,56.1
2'F-ANA at 3 4 5 6 9 10 12 14,68.9
2'F-ANA at 1 2 5 6 9 11 12 13 14 15,50
2'F-ANA at 1 2 4 7 8 9 11 13 15,93.8
2'F-ANA at 4 7 8 10 11 13 14 15,72.1
2'F-ANA at 2 3 4 8 12 13 14 15,301
2'F-ANA at 3 5 7 10 12 14,53.8
2'F-ANA at 2 3 5 6 10 11 12 13 14 15,61
2'F-ANA at 1 3 5 6 7 8 9 11 12 13 14 15,54.7
2'F-ANA at 1 3 5 6 7 8 10 11 12 15,55
2'F-ANA at 3 6 7 8 12,1490
2'F-ANA at 4 5 6 8 9 10 12 13 14 15,46
2'F-ANA at 1 2 5 6 7 8 9 10 11 12 13 14 15,51.9
2'F-ANA at 1 3 4 5 7 8 9 10 14,45.6
2'F-ANA at 1 2 5 7 9 10 14,46.7
2'F-ANA at 1 3 5 6 7 8 9 10 11 12 14 15,52.9
2'F-ANA at 1 3 5 8 9 10 11 12 13 14,45.3

# Block 3 — method: protein-binding microarray; form: double-stranded DNA, one strand shown; matrix: in vitro; tested at: 2540 nM top; setting: 60-bp whole probe; together with: salmon DNA 0.4 mg/ml; baseline: random background probes; direction: higher = stronger binding; constant ends, left off below: GCCTAGCAC … GTCTTGATTCGCTTGACGCTGCTG
# Target: Interferon regulatory factor 3, full length, phosphomimetic (IRF3, Homo sapiens, UniProt Q14653, residues 1-427, S386D/S396D/S398D/S402D/T404D/S405D)
# Residues (chain): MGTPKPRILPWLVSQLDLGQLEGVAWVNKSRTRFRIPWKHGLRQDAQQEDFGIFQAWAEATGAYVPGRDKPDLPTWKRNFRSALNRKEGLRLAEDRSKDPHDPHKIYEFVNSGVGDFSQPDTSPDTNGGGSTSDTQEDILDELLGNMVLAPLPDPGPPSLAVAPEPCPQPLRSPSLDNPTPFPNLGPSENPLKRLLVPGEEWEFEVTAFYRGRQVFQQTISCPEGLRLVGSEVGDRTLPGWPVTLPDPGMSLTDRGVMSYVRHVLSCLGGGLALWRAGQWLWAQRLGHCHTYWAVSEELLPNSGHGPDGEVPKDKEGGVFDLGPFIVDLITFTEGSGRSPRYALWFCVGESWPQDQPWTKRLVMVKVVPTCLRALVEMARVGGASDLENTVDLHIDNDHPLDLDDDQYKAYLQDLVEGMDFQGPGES
Strand,fitted relative affinity [z-score]
GACGGTATCGGGTATCGGGGCGTGCTA,1.76
TTAGGAATGGACTATCGGTTAGTGCTA,-0.326
TTAGGTATCTTTTTCCTTTAGTGCTAG,3.42
ATTTTTTTGTAATCGAAATCTGTGCTA,0.939
TCATTTTTGGTAATAGTACTGTGCTAG,1.3
GACGGTTTCCTTATCCTGGCGTGCTAG,8.4
GACGATATCGGGTATCGAGATGTGCTA,0.261
TACGGTATCGGACTGGGGACGTGCTAG,1.24
TTAGCTATCGACTTTCGGTTAGTGCTA,1.29
GACAGACTGCTTCTCCTGACGTGCTAG,-0.198
TTAGATTTCGGTTCCGATTAGTGCTAG,6.87
GACGGTATCGTCTATCGGGACGTGCTA,0.571
TCATCTAGGTTTTCTGGAACTGTGCTA,0.276
TCACTTCTGGATTTTTTACTGTGCTAG,1.02
AGTATGAGTTGCCCTTTCCCGTGCTAG,3.98
TTAGTTATCCTACTGCTTTAGTGCTAG,1.41
GACGCTTCCGGTTTCGGGACGTGCTAG,4.45
GACGGTACCCTACTGCTGACGTGCTAG,1.14
GACGGTATCGGGTTTCGGGCCGTGCTA,2.42

# Block 4 — method: RNA Bind-n-Seq; form: RNA; matrix: in vitro; tested at: 365 nM; baseline: no-protein control; direction: higher = stronger binding
# Target: RNA binding protein fox-1 homolog 2, RRM domain, GST-SBP tag (RBFOX2, Homo sapiens, UniProt O43251-10, residues 100-194)
# Setting: natural RNA segment, single round, ends assumed
# Constant ends, left off below: GGGAGUUCUACAGUCCGACGAUC … UGGAAUUCUCGGGUGCCAA
# Construct (chain): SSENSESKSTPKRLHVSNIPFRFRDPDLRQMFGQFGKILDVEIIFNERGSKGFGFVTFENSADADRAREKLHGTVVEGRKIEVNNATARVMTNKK
Strand,RBNS enrichment (R)
AACACCUUGAGCCUUAAAUCCCGGCUGCUGGGAAAGUAUAUGCUGUUCCUAGAACAUUCACUGUGCCUUUGCCUGCUUGCUGGCUGCAGCCUCAGAAGGAAAGCCAGGGG,0.427
AUUAUCUGGGCAUUUCCUUAUUUAUUUACAUUGAAUUCAUAUGUUCUCACCUUUUUAAAAAUUUCCAUACAACUUGAGAAUUAGGUAAGUUCCUUUGUAUACAAAUUUCA,0.578
AGUGUCAAGCAUGGGAGCUAAAAUGAGUAAUCUGUGUUACCACACUCUUAGUACUAUCAUUUUUUUUUUUGAGACAGGGUUUCUCUGUAUAGCCCUGGCUGUCCUGGAAC,3.84
UCGAUUCUCCAAGGAGUCCUUCACUGGCCUAAACAUUCUGUAAUGUUGGGCAUUCAAGGGAAUGGAAGAAAACAAACCACAUGCCUUUAACAGAUGAACUGUAAUGACGA,0.261
UGCGUUAAAUAUUGGGCAAAUUGCACUUGACUAAUUUUUGAAGAAAAGUAAUUUAUUCUGUCAAGAAAUUAAAAAUAGGCUUUGUGUAUGGUUAAACUGUAAAUCUUAUG,0.453
AAGGAUCCUCAUUUGUAUACCUAGUGGAAAGGACUCUGAACUCAGAGGAGUCACUGUUCCUUUUUUUAGGUUAGAAAUUAACAGCAGGGAAAUGCCAUCUUAUUACCUGA,0.353
CCUCUUAUGUGUAUUGAUGGGGCAUGAGGAGCCCAGGCAAGGAGAGGCUCGUGGAGAGGCUGAGGGAAUGUUACUAAGUUUCCCUCCGUUUGUCUCCAGUCUGGUGCCAG,7.16
UUUUACAGAAGAAACUAAAAGACAAAGGAAUAUUAAGCACCUGAGGGGUUUUUGUUUGAUUGAUUGUUUGUUUUUGGUAACUUUACAUCAAAUACACAUUUUAUGCUAGA,0.571
AACUGUUCCAAGACUGACACAAGGAUGUUUCAAACUUGCCUCUGUCUGUAGAAAAUGUUAAAAAUACCAACUCACUUGGAAGGAAAAAUAAAAAUCACAAAGGUAUAUUG,0.341
UCAGAAAUCCGCCUGCCUCUGCCUCCCGAGUGCUGGGAUUAAAGGUGCAAACUACCACGCCUGGCAGACCCACCAUUUCUUUGCUUUGGAAAGGUAAUUUAUGAUUAACU,1.45
GGACGCCAAGGCCGCAGGACUGGAGGGCCAGGCCCCGCCACCCCCACGGGAGACCCGGGACAGGGCGUCUUCCUAAGUUAUUCAUCUCCUCUCCGCCUGCUGCUCGGGAA,0.29
CUACUUUUGAAGAAAAGAAGCCCUAUCUGGAGACUUGACUCCAGAGCGAAGCCCUAUCUGGAGACUUGACUCCAGAGCGAAGGUUCAACUGCGCCUGCAGUCACUAUCCC,0.245

# Block 5 — target: CCND2, cyclin fold, Cln2 fusion (human); method: yeast growth competition, sequencing; matrix: yeast; setting: strong parent motif; baseline: not given; direction: higher = stronger binding
# Starting sequence: INSM1 docking peptide (human); PKAIRKLHFEDEV; partner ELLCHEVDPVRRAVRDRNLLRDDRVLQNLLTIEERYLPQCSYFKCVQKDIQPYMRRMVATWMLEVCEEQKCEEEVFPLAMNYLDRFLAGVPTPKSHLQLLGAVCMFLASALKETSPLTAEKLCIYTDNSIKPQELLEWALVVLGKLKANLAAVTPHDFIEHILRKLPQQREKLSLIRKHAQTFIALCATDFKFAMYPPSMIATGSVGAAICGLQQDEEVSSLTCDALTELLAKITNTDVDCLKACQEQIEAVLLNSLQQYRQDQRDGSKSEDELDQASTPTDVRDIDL
Variant,normalised enrichment score
PKAIRKLQFEDEV [H8Q],3.17
PKAIRKLHFHDEV [E10H],1.14
PKAIRKLHNEDEV [F9N],0.117
PKAIRKLHAEDEV [F9A],-0.192
PKAIRKLHFEDAV [E12A],1.97
PKAIRKYHFEDEV [L7Y],-0.0686
PKAIRKLHHEDEV [F9H],0.257
PKAIRKLHFEDDV [E12D],2.43
PRAIRKLHFEDEV [K2R],2.36
PKSIRKLHFEDEV [A3S],0.694
PSAIRKLHFEDEV [K2S],3.15
PKAIRKLDFEDEV [H8D],3.32
PKAIRKLHIEDEV [F9I],-0.129
PKAIRKLHFEDCV [E12C],1.98
PYAIRKLHFEDEV [K2Y],1.46
PKAIRKDHFEDEV [L7D],-0.144
PKAIKKLHFEDEV [R5K],0.863
PKAIRVLHFEDEV [K6V],1.71
PKAIRKGHFEDEV [L7G],-0.0155
PKAIRKLHFEDWV [E12W],1.62
PKAIRKLHQEDEV [F9Q],0.00177
PKAIPKLHFEDEV [R5P],-0.0231
PKAIRKLHFWDEV [E10W],0.488
PKAIRDLHFEDEV [K6D],0.312
PKQIRKLHFEDEV [A3Q],-0.0543
